Measurements from different studies.
Numbered parts are unrelated; each lists some results of a single study. Changes are numbered by the printed parent chain.

Study 1
Target: CCNA2, cyclin fold, Cln2 fusion (human)
Method: yeast growth competition, sequencing
Sample: yeast
Notes: strong parent motif
Reference: not given
Reading: higher = stronger binding
Starting sequence: RB1 docking peptide (human); PKPLKKLRFDIEG
| Variant | normalised enrichment score |
| --- | --- |
| PNPLKKLRFDIEG [K2N] | 0.548 |
| FKPLKKLRFDIEG [P1F] | 1.48 |
| PMPLKKLRFDIEG [K2M] | 0.285 |
| PKPLKKLPFDIEG [R8P] | 0.913 |
| PKPLKKRRFDIEG [L7R] | 0.625 |
| PKPLKKLRFDIED [G13D] | 0.965 |
| PKPLKKLRFDIRG [E12R] | 0.852 |
| PKPLKKLRFQIEG [D10Q] | 1.08 |
| CKPLKKLRFDIEG [P1C] | 2.57 |
| PKPVKKLRFDIEG [L4V] | 2.07 |
| PKPLLKLRFDIEG [K5L] | 1.16 |
| PKPLKKLRGDIEG [F9G] | 1.35 |
| PKPLKKLRFDIEI [G13I] | 1.97 |
| WKPLKKLRFDIEG [P1W] | 2.1 |
| PKPLKKLRFDIFG [E12F] | 2.06 |
| SKPLKKLRFDIEG [P1S] | 0.757 |
| PKPLKKLRFDIIG [E12I] | 2.61 |
| PKPLKKLRFDIKG [E12K] | 0.652 |
| PPPLKKLRFDIEG [K2P] | 0.461 |
| PKMLKKLRFDIEG [P3M] | 1.02 |
| PKPLKKLRNDIEG [F9N] | 1.89 |
| RKPLKKLRFDIEG [P1R] | 1.4 |
| PKPPKKLRFDIEG [L4P] | 1.12 |
| PFPLKKLRFDIEG [K2F] | 0.729 |
| PKPLSKLRFDIEG [K5S] | 2.3 |

Study 2
Target: UBE2L3 UBC core domain (UniProt P68036)
Chain of UniProt P68036 (whole entry, looked up): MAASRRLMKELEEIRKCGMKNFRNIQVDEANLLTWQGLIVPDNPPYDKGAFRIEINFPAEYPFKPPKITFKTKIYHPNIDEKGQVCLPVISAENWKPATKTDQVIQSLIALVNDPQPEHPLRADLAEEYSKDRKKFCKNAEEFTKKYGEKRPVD
Method: yeast two-hybrid
Sample: yeast
Notes: mostly zero background
Reference: not given
Reading: higher = stronger interaction
B1: RNF150 RING domain (UniProt Q9ULK6); chain DKETESDFDNCAVCIEGYKPNDVVRILPCRHLFHKSCVDPWLLDHRTCPMCKMNILKALGIP
B2: TRIM35 RING domain (UniProt Q9UPQ4); chain PSRSFKEELLCAVCYDPFRDAVTLRCGHNFCRGCVSRCWEVQVSPTCPVCKDRASPADLRT
B3: UBE4A RING domain (UniProt Q14139); chain LQQQEEETYADACDEFLDPIMSTLMCDPVVLPSSRVTVDRSTIARHLLSDQTDPFNRSPLTMDQIRPNTELKEKIQRWLAERKQQKEQLE
B4: RNF43 RING domain (UniProt Q68DV7); chain SGSSCSSAPVCAICLEEFSEGQELRVISCLHEFHRNCVDPWLHQHRTCPLCMFNITEGDSFS
B5: TRIM15 RING domain (UniProt Q9C019); chain SLKVVHELPACTLCAGPLEDAVTIPCGHTFCRLCLPALSQMGAQSSGKILLCPLCQEEEQAETPMA
B6: RNF112 RING domain (UniProt Q9ULX5); chain QPMAPRELPTCSICLERLRDPISLDCGHDFCIRCFSTHRLPGCEPPCCPECRKICKQKRGLR
B7: NSMCE1 RING domain (UniProt Q8WV22); chain RETYPDAVKICNICHSLLIQGQSCETCGIRMHLPCVAKYFQSNAEPRCPHCNDYWPHEIPKV
B8: TRIM38 RING domain (UniProt O00635); chain STKKMMEEATCSICLSLMTNPVSINCGHSYCHLCITDFFKNPSQKQLRQETFCCPQCRAPFHMDSLRP
B9: MSL2 RING domain (UniProt Q9HCI7); chain LLPYFRQSLSCCVCGHLLQDPIAPTNSTCQHYVCKTCKGKKMMMKPSCSWCKDYEQFEENKQ
| Sequence | lacZ reporter activity |
| --- | --- |
| B1 (RNF150 RING domain) | 0 |
| B2 (TRIM35 RING domain) | 0 |
| B3 (UBE4A RING domain) | 0 |
| B4 (RNF43 RING domain) | 0 |
| B5 (TRIM15 RING domain) | 0 |
| B6 (RNF112 RING domain) | 0 |
| FLKKLEQSFMCVCCQELVYQPVTTECFHNVCKDCLQRSFKAQVFSCPACRHDLGQNYIMI (UHRF2 RING domain (UniProt Q96PU4)) | 0 |
| B7 (NSMCE1 RING domain) | 0 |
| B8 (TRIM38 RING domain) | 0 |
| B9 (MSL2 RING domain) | 0 |

Study 3
Target: Transcription factor Sp1 (SP1, Homo sapiens, UniProt P08047, residues 1-785, full length assumed)
Chain of UniProt P08047 (whole entry, looked up): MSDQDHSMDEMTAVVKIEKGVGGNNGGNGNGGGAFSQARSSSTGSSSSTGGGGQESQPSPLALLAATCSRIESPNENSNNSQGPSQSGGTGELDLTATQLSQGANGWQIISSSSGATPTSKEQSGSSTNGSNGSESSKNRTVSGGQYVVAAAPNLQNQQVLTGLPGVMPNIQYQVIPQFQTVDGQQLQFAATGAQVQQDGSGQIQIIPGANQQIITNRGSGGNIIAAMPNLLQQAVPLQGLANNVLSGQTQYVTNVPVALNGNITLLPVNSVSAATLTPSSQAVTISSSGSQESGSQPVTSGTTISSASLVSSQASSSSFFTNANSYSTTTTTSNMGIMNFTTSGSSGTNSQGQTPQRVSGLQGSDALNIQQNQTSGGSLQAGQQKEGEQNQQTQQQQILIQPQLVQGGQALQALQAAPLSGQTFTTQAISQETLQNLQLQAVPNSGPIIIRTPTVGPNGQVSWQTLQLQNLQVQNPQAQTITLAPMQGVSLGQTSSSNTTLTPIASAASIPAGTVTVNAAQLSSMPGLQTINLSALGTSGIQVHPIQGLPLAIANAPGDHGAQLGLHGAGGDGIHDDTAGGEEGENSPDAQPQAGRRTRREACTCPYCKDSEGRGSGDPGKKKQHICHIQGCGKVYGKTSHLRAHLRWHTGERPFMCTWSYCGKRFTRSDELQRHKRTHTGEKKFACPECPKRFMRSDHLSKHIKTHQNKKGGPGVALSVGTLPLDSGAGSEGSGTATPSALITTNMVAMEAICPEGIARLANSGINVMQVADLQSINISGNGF
Method: protein-binding microarray
Form: double-stranded DNA, one strand shown
Sample: in vitro
Tested at: not given
Notes: k-mer, scored over probes, only values ≥0.25
Reading: higher = stronger binding
| Sequence | E-score |
| --- | --- |
| CCACACCC | 0.435 |
| ATGTGGGG | 0.291 |
| AACCATTA | 0.253 |
| ATGACCCA | 0.278 |
| CACCCACC | 0.393 |
| ATGGGGAA | 0.365 |
| CAAATCTA | 0.274 |
| AACATACG | 0.275 |
| CCGCCCGC | 0.302 |
| CACGACCC | 0.267 |
| GGGTGTAC | 0.264 |
| TCATATGA | 0.301 |
| CCCCATAG | 0.294 |
| ACGCCCCG | 0.332 |
| AGAGGGGC | 0.318 |
| CAACAGGG | 0.252 |
| AGTAAGTG | 0.283 |
| ACCGCCCT | 0.285 |
| CCATCCCC | 0.274 |

Study 4
Target: Interferon regulatory factor 5, full length, phosphomimetic (IRF5, Homo sapiens, UniProt Q13568-2, residues 1-514, S451D/S453D/S456D/S462D)
Method: protein-binding microarray
Form: double-stranded DNA, one strand shown
Sample: in vitro
Tested at: 940 nM top
Notes: 60-bp whole probe
Together with: salmon DNA 0.4 mg/ml
Reference: random background probes
Reading: higher = stronger binding
Shared flanks, not repeated: GCCTAGCAC … GTCTTGATTCGCTTGACGCTGCTG
| Sequence | fitted relative affinity [z-score] |
| --- | --- |
| GAGCCCGGGGTGTAAGCAACGTGCTAG | -1.18 |
| GCCGGACTGGGTCTCGGGACGTGCTAG | -0.362 |
| GACGGAATGGACTTTCGGGACGTGCTA | 0.529 |
| GTCGGTATCGACTTTCGGGACGTGCTA | 5.62 |
| TTAGATTTCGGGACTGGATTTGTGCTA | 0.536 |
| GACGGTATCGACACTGAGGACGTGCTA | 3.96 |
| GACGGTCTCCTAGTGCTGACGTGCTAG | -0.556 |
| GACGGTATCCGTCTCCTGACGTGCTAG | 0.25 |
| TTAGCTTTCCTTTCCCTTTAGTGCTAG | 1.22 |
| TTAGGGATCGACTATCGGTTAGTGCTA | 0.37 |
| GCCGGTTTCCTTTCCCTGACGTGCTAG | 2.19 |
| GACGCTTTCCTTCTCCTGACGTGCTAG | 1.16 |
| CTTTATTTAAGCTCCTATCTTGTGCTA | 0.833 |
| GACGGTCACGGTATCGGGACGTGCTAG | 0.705 |
| ATGTCCTCCTCTCTCTTTCCGTGCTAG | 1.34 |
| GACGGTAACCTTATCCTGACGTGCTAG | -0.385 |

A few entries again (study 2):
| Sequence | lacZ reporter activity |
| --- | --- |
| B1 (RNF150 RING domain) | 0 |
| B2 (TRIM35 RING domain) | 0 |
| B7 (NSMCE1 RING domain) | 0 |
| B8 (TRIM38 RING domain) | 0 |
| B9 (MSL2 RING domain) | 0 |
| B5 (TRIM15 RING domain) | 0 |
| FLKKLEQSFMCVCCQELVYQPVTTECFHNVCKDCLQRSFKAQVFSCPACRHDLGQNYIMI (UHRF2 RING domain (UniProt Q96PU4)) | 0 |
| B6 (RNF112 RING domain) | 0 |
| B3 (UBE4A RING domain) | 0 |
